Measurements pooled from the literature.
Lines come from different studies, so protocols differ. Several values in a cell are separate wells, animals, samples, runs or records. Numbers after ± are the reported error.
rep papain-like protease: Replicase polyprotein 1ab, papain-like protease (rep, Severe acute respiratory syndrome coronavirus 2, UniProt P0DTD1)
rep main protease: Replicase polyprotein 1ab, main protease (rep, Severe acute respiratory syndrome coronavirus 2, UniProt P0DTD1)
Matrix protein 2 S31N: Matrix protein 2 (Influenza A virus, UniProt P0DOF5, S31N)

Compound | target | assay | test system | conditions | how to read | endpoint | value
O=c1cc(-c2ccc(O)cc2)oc2c([C@@H]3OC[C@H](O)[C@H](O)[C@H]3O)c(O)c([C@@H]3O[C@H](CO)[C@@H](O)[C@H](O)[C@H]3O)c(O)c12 | Replicase polyprotein 1ab, papain-like protease Y268A (rep, Severe acute respiratory syndrome coronavirus 2, UniProt P0DTD1, Y1831A) | enzyme activity, inhibitor | – | concentration not given, PLpro Y268A mutant | – | inhibition | 33.7%
C[C@H](c1cccc2ccccc12)N1CCC(C(=O)NCc2cc(F)cc(NC(=O)CN(C)C)c2)CC1 | rep papain-like protease | nsp1-nsp2 cleavage, western blot | HEK293T cells | 10 µM | – | inhibition | inhibited
CC(C)CC(C(=O)N1CC2(CC1C#N)C(=O)Nc1ccccc12)N(C)C(=O)c1cc2c(F)cc(F)c(F)c2[nH]1 (centres unmarked) | Replicase polyprotein 1ab, main protease K90R/A193V (rep, Severe acute respiratory syndrome coronavirus 2, UniProt P0DTD1, A3456V/K3353R) | – | – | 0.1 µM | – | remaining activity | -0.252% and 0.057% and -0.215%
CC(C)C[C@@H]1NC(=O)[C@H](C(C)C)NC(=O)[C@H](C(C)C)NC(=O)[C@@H]2CSC(=N2)c2cc(ccn2)C[C@@H](C(N)=O)NC(=O)[C@H](CCC(N)=O)NC1=O | rep main protease | enzyme activity, inhibitor | – | 100 µM | – | inhibition | no inhibition
O=C(NC1CCN(c2ncnc3[nH]cnc23)CC1)c1cccc(NS(=O)(=O)c2ccc(C(F)(F)F)cc2)c1 | Replicase polyprotein 1ab, nsp14 (rep, Severe acute respiratory syndrome coronavirus 2, UniProt P0DTD1) | – | – | 3.125 µM | – | inhibition | 89.4%
Brc1cc(CNC23CC4CC(CC(C4)C2)C3)on1 | Matrix protein 2 S31N | proton channel activity, inhibitor | Influenzavirus A, S31N mutant | 100 µM | – | inhibition | 38%
CCOc1ccc(CN2CC[C@H]2C(=O)NC)cc1-c1cccc(C(=O)NC[C@@H]2COC(C)(C)O2)c1 | rep main protease | immobilized protein counterscreen | – | – | baseline: 3CL protease alone | enrichment index | 9710
Cc1ncc(CNC23CC4CC(CC(C4)C2)C3)s1 | Matrix protein 2 S31N | proton channel activity, inhibitor | Influenzavirus A, S31N mutant | 100 µM | – | inhibition | 28%
C[C@H](c1cccc2ccccc12)N1CCC(C(=O)NCc2cccc(NC(=O)N3CCN(C)CC3)c2)CC1 | rep papain-like protease | nsp1-nsp2 cleavage, western blot | HEK293T cells | 10 µM | – | inhibition | inhibited
CNC(=O)CC[C@H](Cc1ccccc1)NC(=O)[C@@H](Cc1ccc(Cl)cc1Cl)NC(=O)[C@H](N)Cc1ccccc1[N+](=O)[O-] | rep main protease | immobilized protein counterscreen | – | – | baseline: 3CL protease alone | enrichment index | 17100
CC(C)(C)[C@H](NC(=O)NC1(CS(=O)(=O)C(C)(C)C)CCCCC1)C(=O)N1C[C@H]2[C@@H]([C@H]1C(=O)N[C@H](C#N)C[C@@H]1CCNC1=O)C2(C)C | Replicase polyprotein 1ab, main protease (rep, Severe acute respiratory syndrome coronavirus 2, UniProt P0DTD1, C3408A) | thermal shift | SARS-CoV-2 | – | – | melting temperature | 60.5 ± 0.1 °C
